Published values from different studies.
A part holds a random share of what one study measured. Substitutions count along the parent as printed.

Series 1
Target: Centromere-binding protein 1, full length, N-terminal tag (CBF1, Saccharomyces cerevisiae, UniProt P17106, residues 1-351)
UniProt P17106, sequence (whole entry, looked up): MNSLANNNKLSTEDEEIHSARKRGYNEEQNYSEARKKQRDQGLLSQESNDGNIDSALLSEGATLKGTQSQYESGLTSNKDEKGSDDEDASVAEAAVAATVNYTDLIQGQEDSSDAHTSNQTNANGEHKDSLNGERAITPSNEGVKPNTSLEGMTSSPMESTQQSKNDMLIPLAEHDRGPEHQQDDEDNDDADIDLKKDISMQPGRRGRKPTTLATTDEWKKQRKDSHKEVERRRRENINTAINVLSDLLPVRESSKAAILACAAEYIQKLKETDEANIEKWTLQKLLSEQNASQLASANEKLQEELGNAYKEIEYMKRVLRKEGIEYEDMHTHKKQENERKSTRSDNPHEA
Technique: protein-binding microarray
Form: double-stranded DNA, one strand shown
Medium: in vitro
Concentration: 0.8 µM
Notes: whole 60-bp probe, no competitor
Reading: higher = stronger binding
Endpoint: fluorescence intensity
All sequences stand within: … GTCTTGATTCGCTTGACGCTGCTG
GAAGATTCAAATGGTGACGTTAAAAACATGGAGTAG: 576 a.u.
CTAATAACTCAACAAAACGTGACAAAAAATCACTTC: 2780 a.u.
GAACTCATCTCGTAGATCACCAGGGCACACAACTAG: 570 a.u.
GAAAAGGAAGGTGTTCACGTTGTGAACTTTAATTAG: 575 a.u.
CTATAAAGTGAGGCTCACCTGGTCATTTAACACTTC: 598 a.u.
GAATTTATTTTATTGCATGTGCTGTTTTCCCCATAG: 971 a.u.
GAATGAAAATTACTGCACGTCATGTGGGAGGAGTAG: 984 a.u.
GAAATGCAATTATGCAACACGCACACATTCACATAG: 528 a.u.
CTAGAACAAATACATCACGAAGACAGAAATACGTTC: 639 a.u.
TGTACGAAGCTATATGTGGCAATTATAGTAGTTAGG: 519 a.u.
GAACTTCATTAACATGTGACAAGTGCCCATCCATAG: 2800 a.u.
GAAACAGGGGAGAGACACGCAGATAAATACACATAG: 517 a.u.
GAAGGCGCCAAACAAAACGTGGACTGTGACAAATAG: 580 a.u.
GAAAAATAAAAAACCCACGTAATATAGCAAAAATAG: 545 a.u.
CCTAACTACTATATACACGCGGTATAGCTTCGTACA: 533 a.u.
CTAAAGGCTGGTGAACGCCTGATGCGAGCTATATTC: 509 a.u.
TGTACGAAGCTATCGATCACCATTATAGTAGTTAGG: 508 a.u.
CTACTCACACCGCCGCACGCGAGTGAGGTTGAATTC: 485 a.u.
GAATCCGGAGGGTGTCACCCCCCCTCTCTCAACTAG: 503 a.u.

Series 2
Target: CCNA2, cyclin fold, Cln2 fusion (human)
Technique: yeast growth competition, sequencing
Medium: yeast
Notes: strong parent motif
Reference: not given
Reading: higher = stronger binding
Endpoint: normalised enrichment score
Starting sequence: E2F1 docking peptide (human); PPVKRRLDFETDH; partner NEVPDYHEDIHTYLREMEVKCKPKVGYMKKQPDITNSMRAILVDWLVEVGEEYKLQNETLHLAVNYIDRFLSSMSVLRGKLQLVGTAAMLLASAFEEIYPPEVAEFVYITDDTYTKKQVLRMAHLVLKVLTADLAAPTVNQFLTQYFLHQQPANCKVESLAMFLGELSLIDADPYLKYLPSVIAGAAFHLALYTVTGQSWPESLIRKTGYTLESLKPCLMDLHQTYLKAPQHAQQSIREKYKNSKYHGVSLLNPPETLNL
PPVKRRLDFETVH [D12V]: 6.12
PPVKRRLDFMTDH [E10M]: 6.3
PPNKRRLDFETDH [V3N]: 2.05
PPVKCRLDFETDH [R5C]: 3.71
PPVKRRLDEETDH [F9E]: 0.49
PPVKRRLDFEWDH [T11W]: 6.08
PPVKWRLDFETDH [R5W]: 0.276
PPVKRRLDFGTDH [E10G]: 6.32
PPVKRRLDGETDH [F9G]: 0.28
PPVKRRLDFRTDH [E10R]: 6.04
PPVKRRLDFENDH [T11N]: 6.17
PPVKPRLDFETDH [R5P]: -0.356
PCVKRRLDFETDH [P2C]: 6.2
PKVKRRLDFETDH [P2K]: 6.98
PPVKRFLDFETDH [R6F]: 4.85
PPVKRRLDVETDH [F9V]: 1.99
PPVKRTLDFETDH [R6T]: 4.94

Series 3
Target: RING finger protein unkempt homolog, zinc fingers 1-6, GST-SBP tag (UNK, Homo sapiens, UniProt Q9C0B0, residues 30-357)
UniProt Q9C0B0, sequence (30-357, looked up): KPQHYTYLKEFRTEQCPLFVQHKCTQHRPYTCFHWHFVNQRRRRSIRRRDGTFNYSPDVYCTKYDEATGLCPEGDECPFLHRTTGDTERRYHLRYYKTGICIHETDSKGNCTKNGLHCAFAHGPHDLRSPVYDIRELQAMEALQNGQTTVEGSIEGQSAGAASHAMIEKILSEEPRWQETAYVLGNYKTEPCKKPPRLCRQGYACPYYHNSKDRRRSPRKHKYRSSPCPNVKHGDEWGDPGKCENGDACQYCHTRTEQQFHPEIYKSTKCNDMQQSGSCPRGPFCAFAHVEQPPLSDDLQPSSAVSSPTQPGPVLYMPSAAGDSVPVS
Technique: RNA Bind-n-Seq
Form: RNA
Medium: in vitro
Concentration: not given
Notes: RNA with constant flanks, ends assumed
Reference: input RNA pool
Reading: higher = stronger binding
Endpoint: bound/input enrichment
All sequences stand within: GGGAGUUCUACAGUCCGACGAUC … CAACAGAGGAUUGAGCAUCA
AAAGCAACUUUUAUCAAAGUACCCCAGAACCAAAAUGGCAAAUCUAAAGGGUAUGCAUUUACCGAGUUUGCUUCAUUCGAAGACGCUAAAGAAGCUUUAAAUUCCUGUAAUAAAAGGGAA: 0.115 ratio
AACCGGAAGGGCCUGAUAGCCGCCAUCUGUGCAGGUCCUACUGCUCUGUUGGCUCAUGAAACCGGUUUUGGAAGUAAAGUUACAACACACCCUCUUGCUAAAGACAAAAUGAUGAAUGGA: 0.314 ratio
UUGCUAGGAAAAAUUACAGCUUUGCAAUAUAACAACUGUUUUUGGAUAUUUCUGAAUGUACCCGAACAAAUAAUCAGUCUGUUUUUAAUGAAUCUAUUUGUAUUUUCCCAAUCAUUCCCU: 0.207 ratio
GCUUCCUUAGGUCUAGAGAAGUUGGUAAGCCCUCCAGCCUCAGCCGCUGCUUCCAGCCCCCGUUCUUCUCCAUCUCCACAGCCUGUUUCAGAGCUUGACAUGUCCUCAGAGCCACCUCAG: 0.523 ratio
CUGAGCUAAAGGAGUUAGCAUCUUUAUUUUUGUAUCAAAAAUAAAGGUUAUUUUGAAAUUAUCCGGAUUUUUACACAAUUCUGAAAUCUGUUGCUUUUGUAAACAAAUUGUUUGAUCUUA: 7.53 ratio
GAUCAGAAUGGAAUGACCCCUUUAAUGUGGGCAGCUUAUAGAACACAUAGUGUGGAUCCAACCCGAUUGCUUUUAACAUUCAAUGUUUCAGUUAACCUUGGUGACAAGUAUCACAAAAAC: 0.31 ratio
UGUGGAAUCAAGCACCUUCACUCUGCUGGAAUUAUUCAUCGGGACUUAAAGCCUAGUAAUACCGCCGUCAAAUCAGACUGCACUUUGAAGAUUCUUGAUUUUGGACUGGCGAGGACUGCA: 0.342 ratio
GGUCUCAGCCCCCCACCCCCACCCCUUUGUUUGACUUGCGUCGUCUGAUACUCCGUAUUGCCGCUUUUGUCCGCAUGUUACUACCCUGUAAAUAUGCUGUUCCAAUACUGUUAACAGCCU: 2.53 ratio

Series 4
Target: Histone acetyltransferase KAT6A, both winged helices, GST fusion (KAT6A, Homo sapiens, UniProt Q92794, residues 1-181)
Technique: protein binding microarray
Form: double-stranded DNA, one strand shown
Medium: in vitro
Concentration: not given
Notes: 8-mer, flanks averaged, mean of 2 arrays, mostly near background
Reference: not given
Reading: higher = stronger binding
Endpoint: E-score
Construct (chain): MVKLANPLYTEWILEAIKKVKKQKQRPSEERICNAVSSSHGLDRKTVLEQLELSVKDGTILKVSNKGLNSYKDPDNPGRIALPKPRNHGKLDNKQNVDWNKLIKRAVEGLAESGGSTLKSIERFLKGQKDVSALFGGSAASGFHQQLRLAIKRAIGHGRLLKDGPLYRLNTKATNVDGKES
AGCGATGC: 0.0887
GACGCCTA: 0.0825
TAGGTCCA: -0.132
GCGATGCC: 0.122
GTTCCTCA: -0.0167
GGGCTCGA: 0.129
CCAAAGGG: -0.254
GCATAAAC: 0.114
CCAGAAAC: -0.124
CATAAGGA: -0.116
AGAGCATG: -0.0752
CGCCAGCA: -0.0348
CATTGAGC: 0.0334
CTTTTTAC: 0.0032
GTGTTTGA: -0.0789
ACTATGGG: -0.222
AAAAGTGG: -0.151
CCTTAGAA: -0.161
AGCTGTAG: -0.109
ACGGGTGA: 0.148
GCTTGCGA: 0.196
GGTTAAAC: 0.0834
CTACTAAA: 0.0218
ACGACTTA: -0.112
CTCGGTCA: 0.0841

For quick reference, copied from above (series 1):
CTAATAACTCAACAAAACGTGACAAAAAATCACTTC: 2780 a.u.
GAACTCATCTCGTAGATCACCAGGGCACACAACTAG: 570 a.u.
GAAAAGGAAGGTGTTCACGTTGTGAACTTTAATTAG: 575 a.u.
CTATAAAGTGAGGCTCACCTGGTCATTTAACACTTC: 598 a.u.
GAATTTATTTTATTGCATGTGCTGTTTTCCCCATAG: 971 a.u.
GAATGAAAATTACTGCACGTCATGTGGGAGGAGTAG: 984 a.u.
GAAATGCAATTATGCAACACGCACACATTCACATAG: 528 a.u.
